Measured values gathered from unrelated publications.
Protocols differ between the studies behind these lines. ± marks the error that the study gave.

Structure (SMILES)	cell line	assay	test system	conditions	scale	IC50 [nM]
C[C@H]1[C@H](OC(=O)CCC(=O)OCCC2CCN(CC(=O)Nc3ccc([N+](=O)[O-])c(C(F)(F)F)c3)CC2)O[C@@H]2O[C@@]3(C)CC[C@H]4[C@H](C)CC[C@@H]1[C@@]24OO3	Hep3B	cell growth or viability, CCK-8				1030
O=C(c1cc(Cc2n[nH]c(=O)c3ccccc23)ccc1F)N1CC(CNC2CC2)C1	OVCAR-3					5.8
CC(=O)N[C@H](C(=O)N[C@@H](CCCNC(=N)N)C(=O)N[C@@H](CCCCN)C(=O)N[C@@H](CCCNC(=N)N)C(=O)N[C@]1(C)CCCCCCC=CCCC[C@@](C)(C(=O)N[C@@H](CCCNC(=N)N)C(=O)N[C@@H](CCC(=O)O)C(=O)N[C@@H](CC(C)C)C(=O)N[C@H](C(=O)N[C@@H](CCC(=O)O)C(N)=O)C(C)C)NC(=O)[C@H](CCC(N)=O)NC(=O)[C@H](CC(C)C)NC(=O)[C@H](CC(C)C)NC(=O)[C@H](CCCNC(=N)N)NC(=O)[C@H](CCCNC(=N)N)NC(=O)[C@H](CC(C)C)NC1=O)C(C)C	H3255 (EGFR L858R)	cell viability, ATP luminescence		18 h		1910 ± 380
CC[C@H](C)[C@H](NC(=O)[C@H](CCCCN)NC(=O)[C@H](CCCCN)NC(=O)[C@H](CC(C)C)NC(=O)[C@H](CCCCN)NC(=O)[C@H](CCCCN)NC(=O)[C@H](Cc1ccccc1)NC(=O)[C@H](Cc1ccccc1)NC(=O)[C@H](CCCNC(=N)N)NC(=O)[C@H](CCCNC(=N)N)NC(=O)[C@@H](NC(=O)[C@H](CCCCN)NC(=O)[C@H](CCCNC(=N)N)NC(=O)[C@@H](NC(=O)[C@H](Cc1ccc(O)cc1)NC(=O)[C@H](CO)NC(=O)[C@H](CCCNC(=N)N)NC(=O)[C@@H](N)CC(C)C)[C@@H](C)CC)[C@@H](C)CC)C(=O)N[C@@H](CC(C)C)C(=O)N[C@@H](CCCCN)C(=O)N[C@@H](CCCCN)C(N)=O	SAOS-2	cell growth or viability, resazurin				> 20000
CCOc1ccccc1-n1c(CN2CCNCC2)nc2ccc(Cl)cc2c1=O	PANC-1	cell growth or viability, ATP luminescence		72 h		1200
[Cl][Au-]1([Cl])[c]2ccccc2-c2cccc[n+]21	A-375	cell growth or viability, resazurin		72 h		7000
CCOc1cc(C)ccc1-n1c(CN2CCNCC2)nc2ccccc2c1=O	PANC-1	cell growth or viability, ATP luminescence		72 h		55
CC1CCC2C(C)C(OC(=O)CCC(=O)OC3C(C)OC(n4cc(F)c(=O)[nH]c4=O)C3OC(=O)CCC(=O)OC3OC4OC5(C)CCC6C(C)CCC(C3C)C46OO5)OC3OC4(C)CCC1C32OO4 (stereo not shown)	PC-3 (p53 null)	cell growth, CCK-8		48 h		> 50000
CCOc1cc(Br)ccc1-n1c(CN2CCNCC2)nc2ccccc2c1=O	PANC-1	cell growth or viability, ATP luminescence		72 h		54
CCCCCCCC(=O)NCCCC[C@H](NC(=O)CCCCCCC)C(=O)N[C@@H](CCCCNC(=O)CCCCCCC)C(=O)NCC(=O)NCC(=O)NCC(=O)N[C@@H](CS)C(=O)N[C@@H](CCCNC(=N)N)C(=O)N[C@@H](CCCCN)C(=O)N1CCC[C@H]1C(=O)N[C@@H](CS)C(=O)N[C@@H](CCCNC(=N)N)C(=O)N[C@@H](CCCCN)C(=O)N1CCC[C@H]1C(N)=O	human red blood cells	haemolysis		pH 7.4, 37 °C	relative to: Triton X-100	332000
CCC1(c2ccc(NC(=O)CCC(=O)OC3OC4OC5(C)CCC6C(C)CCC(C3C)C46OO5)cc2)CCC(=O)NC1=O (mixture of isomers)	PC-3 (p53 null)	cell growth, CCK-8		48 h		> 50000
CC(C)C12OC1C1OC13C1(C)CCC4=C(COC4=O)C1CC1OC13C2OC(=O)CCCOC1OC(CO)C(O)C(O)C1O (stereo not shown)	Detroit 562	cell growth or viability, XTT		47 h		1240
Cc1cc(Oc2nc(N3CC[C@@H](c4ccncc4)C3)ncc2F)[nH]n1	PLC-PRF-5	cell proliferation	liver cancer			35500
CC[C@H](C)[C@H](NC(=O)[C@H](C)NC(=O)[C@@H](N)Cc1c[nH]cn1)C(=O)N[C@@H](Cc1ccc(O)cc1)C(=O)N1CCC[C@H]1C(=O)N[C@@H](CCCNC(=N)N)C(=O)N[C@@H](Cc1c[nH]cn1)C(=O)N[C@@H](CC(C)C)C(=O)N[C@@H](CCC(=O)O)C(=O)N[C@H](C(=O)N[C@@H](C)C(=O)N[C@H](C(=O)N[C@@H](CC(N)=O)C(=O)N[C@@H](CC(C)C)C(=O)N[C@@H](C)C(=O)N[C@@H](Cc1c[nH]c2ccccc12)C(=O)O)C(C)C)[C@@H](C)O	CLL patient PBMCs	cell death, PI staining flow cytometry		90 min		> 10700
CC(=O)N[C@H](C(=O)N[C@@H](CCCNC(=N)N)C(=O)N[C@@H](CCCCN)C(=O)N[C@@H](CCCNC(=N)N)C(=O)N[C@H](C(=O)N[C@@H](CC(C)C)C(=O)N[C@@H](CCCNC(=N)N)C(=O)N[C@@]1(C)CCCC=CCCC[C@@](C)(C(=O)N[C@@H](CCCNC(=N)N)C(=O)N[C@@H](CCC(=O)O)C(=O)N[C@@H](CC(C)C)C(=O)N[C@H](C(=O)N[C@@H](CCC(=O)O)C(N)=O)C(C)C)NC(=O)[C@H](CCC(N)=O)NC(=O)[C@H](CC(C)C)NC(=O)[C@H](CC(C)C)NC1=O)[C@@H](C)O)C(C)C	SK-N-MC	cell viability		18 h, serum-free		> 10000
CCOc1ccccc1-n1c(CN2CCNCC2)nc2cc(I)ccc2c1=O	PANC-1	cell growth or viability, ATP luminescence		72 h		680
CCCCCCCC(=O)NCCCC[C@H](NC(=O)CCCCCCC)C(=O)N[C@@H](CCCCNC(=O)CCCCCCC)C(=O)NCC(=O)NCC(=O)NCC(=O)N[C@@H](CS)C(=O)N[C@@H](CCCNC(=N)N)C(=O)N[C@@H](CCCCN)C(=O)N1CCC[C@H]1C(=O)N[C@@H](CS)C(=O)N[C@@H](CCCNC(=N)N)C(=O)N[C@@H](CCCCN)C(=O)N1CCC[C@H]1C(=O)N[C@@H](CS)C(=O)N[C@@H](CCCNC(=N)N)C(=O)N[C@@H](CCCCN)C(=O)N1CCC[C@H]1C(=O)N[C@@H](CS)C(=O)N[C@@H](CCCNC(=N)N)C(=O)N[C@@H](CCCCN)C(=O)N1CCC[C@H]1C(N)=O	human red blood cells	haemolysis		pH 7.4, 37 °C	relative to: Triton X-100	414000
CC(=O)N[C@H](C(=O)N[C@@H](CCCNC(=N)N)C(=O)N[C@@H](CCCCN)C(=O)N[C@@H](CCCNC(=N)N)C(=O)N[C@]1(C)CCCCCCC=CCCC[C@@](C)(C(=O)N[C@@H](CCCNC(=N)N)C(=O)N[C@@H](CCC(=O)O)C(=O)N[C@@H](CC(C)C)C(=O)N[C@H](C(=O)N[C@@H](CCC(=O)O)C(N)=O)C(C)C)NC(=O)[C@H](CCC(N)=O)NC(=O)[C@H](C)NC(=O)[C@H](C)NC(=O)[C@H](CCCNC(=N)N)NC(=O)[C@H](CCCNC(=N)N)NC(=O)[C@H](C)NC1=O)C(C)C	H3255 (EGFR L858R)	cell viability		18 h, serum-free		5600
Cc1ccc(C2=CC(C)(C)Oc3ccc(-c4ccc(-c5ccc(C(=O)O)cc5)[nH]4)cc32)cc1	human lung fibroblast					26100
CC(C)C12OC1C1OC13C1(C)CCC4=C(COC4=O)C1CC1OC13C2OC(=O)CCC(=O)OC1OC(CO)C(O)C(O)C1O (stereo not shown)	primary prostate epithelial cells	cell viability, XTT		47 h		5270
CC1CCC2C(C)C(OC(=O)CCC(=O)N3CCN(CC(=O)Nc4ccc([N+](=O)[O-])c(C(F)(F)F)c4)CC3)OC3OC4(C)CCC1C32OO4 (stereo not shown)	Hep3B	cell growth or viability, CCK-8				1130
CCOc1ccccc1-n1c(C(C)N2CCN(C(=O)COc3ccc(Cl)cc3)CC2)nc2ccccc2c1=O (stereo not shown)	PANC-1	cell growth or viability, ATP luminescence		72 h		1200
CC(C)C[C@H](NC(=O)[C@H](CC(N)=O)NC(=O)[C@@H](NC(=O)[C@H](C)NC(=O)[C@@H](NC(=O)[C@H](CCC(=O)O)NC(=O)[C@H](CC(C)C)NC(=O)[C@H](CCCCN)NC(=O)[C@H](CCCCN)NC(=O)[C@H](CCC(=O)O)NC(=O)[C@H](Cc1c[nH]c2ccccc12)NC(=O)[C@@H](NC(=O)[C@H](Cc1c[nH]c2ccccc12)NC(=O)[C@H](CO)NC(=O)CNC(=O)CNC(=O)[C@H](CCCNC(=N)N)NC(=O)[C@H](CCCNC(=N)N)NC(=O)[C@H](CCCNC(=N)N)NC(=O)[C@H](CCC(N)=O)NC(=O)[C@H](CCCNC(=N)N)NC(=O)[C@H](CCCNC(=N)N)NC(=O)[C@H](CCCCN)NC(=O)[C@H](CCCCN)NC(=O)[C@@H](N)CCCNC(=N)N)[C@@H](C)O)[C@@H](C)O)C(C)C)C(=O)N[C@@H](C)C(=O)N[C@@H](Cc1c[nH]c2ccccc12)C(=O)N[C@H](C(=O)N[C@@H](C)C(=O)NCC(=O)N[C@@H](CC(N)=O)C(=O)N[C@@H](CO)C(=O)N[C@@H](CC(N)=O)C(=O)N[C@@H](CCCCN)C(=O)N[C@@H](Cc1c[nH]c2ccccc12)C(=O)N[C@H](C(=O)N[C@@H](Cc1c[nH]c2ccccc12)C(=O)N[C@@H](CCCCN)C(=O)O)[C@@H](C)O)[C@@H](C)O	CLL patient PBMCs	cell death, PI staining flow cytometry		90 min		2800
C[C@@H]1COCCN1c1nc(NCc2cccnc2C(F)(F)F)c2cccnc2n1	cardiomyocytes	calcium signalling		in vitro toxicology		> 20000
CCOc1ccccc1-n1c(CN2CCNCC2)nc2c(C)cccc2c1=O	PANC-1	cell growth or viability, ATP luminescence		72 h		1600
CC(=O)N[C@H](C(=O)N[C@@H](CCCNC(=N)N)C(=O)N[C@@H](CCCCN)C(=O)N[C@@H](CCCNC(=N)N)C(=O)N[C@@]1(C)CCCC=CCCC[C@@](C)(C(=O)N[C@@H](CC(C)C)C(=O)N[C@@H](CCC(N)=O)C(=O)N[C@@H](CCC(=O)O)C(=O)N[C@@H](CCCNC(=N)N)C(=O)N[C@@H](CCC(=O)O)C(=O)N[C@@H](CC(C)C)C(=O)N[C@H](C(=O)N[C@@H](CCC(=O)O)C(N)=O)C(C)C)NC(=O)[C@H](CCCNC(=N)N)NC(=O)[C@H](CCCNC(=N)N)NC(=O)[C@H](CC(C)C)NC1=O)C(C)C	H3255 (EGFR L858R)	cell viability		18 h, serum-free		> 100000
CC(C)[C@H]1NC(=O)[C@@H](C)NC(=O)[C@@H](C(C)C)NC(=O)[C@@H](Cc2ccccc2)NC(=O)[C@@H](C(C)C)NC(=O)[C@@H]([C@H](C)O)NC(=O)[C@@H](Cc2ccc(O)cc2)NC(=O)[C@@H](CCCNC(=N)N)NC(=O)[C@@H]2CCCC[C@H]2NC(=O)[C@@H](CO)NC(=O)[C@H](Cc2ccc(O)cc2)NC(=O)CSC[C@@H](C(=O)NCCOCCOCCOCCOCCOCCOCCC(N)=O)NC(=O)[C@@H](CO)NC(=O)[C@@H](C(C)C)NC(=O)[C@@H](Cc2ccc(O)cc2)NC1=O	CFPAC-1	cell migration		18 h		~1000
Cc1sc2c(c1C)C(c1ccc(-c3cccc(NC(=O)c4cnn5cccnc45)c3)cc1)=N[C@@H](CC(N)=O)c1nnc(C)n1-2	KG-1	cell growth or viability, ATP luminescence		72 h		55.3

Some of these lines once more:
Structure (SMILES)	cell line	assay	test system	conditions	scale	IC50 [nM]
C[C@H]1[C@H](OC(=O)CCC(=O)OCCC2CCN(CC(=O)Nc3ccc([N+](=O)[O-])c(C(F)(F)F)c3)CC2)O[C@@H]2O[C@@]3(C)CC[C@H]4[C@H](C)CC[C@@H]1[C@@]24OO3	Hep3B	cell growth or viability, CCK-8				1030
CC1CCC2C(C)C(OC(=O)CCC(=O)OC3C(C)OC(n4cc(F)c(=O)[nH]c4=O)C3OC(=O)CCC(=O)OC3OC4OC5(C)CCC6C(C)CCC(C3C)C46OO5)OC3OC4(C)CCC1C32OO4 (stereo not shown)	PC-3 (p53 null)	cell growth, CCK-8		48 h		> 50000
Cc1ccc(C2=CC(C)(C)Oc3ccc(-c4ccc(-c5ccc(C(=O)O)cc5)[nH]4)cc32)cc1	human lung fibroblast					26100
